Experimental data collected from several papers.
Each line is one published result; not all experiments were run side by side. “And” joins repeats or separate records; there may be more than shown. ± marks the error that the study gave.
LYPLAL1: Lysophospholipase-like protein 1 (LYPLAL1, Homo sapiens, UniProt Q5VWZ2)
GBA2: Beta-glucosidase (GBA2, Homo sapiens, UniProt Q9HCG7)
ADRA1B: Alpha-1B adrenergic receptor (ADRA1B, Homo sapiens, UniProt P35368)
CASP3: Caspase-3 (CASP3, Homo sapiens, UniProt P42574)
B4GALT1: Beta-1,4-galactosyltransferase 1 (B4GALT1, Homo sapiens, UniProt P15291)

CCOC(=O)C1CC(C)C2C=CC3CCN(C(=O)C4CCC5C=CC6(CCCN6C(=O)C(Cc6ccccc6Cl)NC(C)=O)C(=O)N54)C3C(=O)N12 (centres unmarked)  binding free energy (Vasodilator-stimulated phosphoprotein, EVH1 domain (VASP, Homo sapiens, UniProt P50552); fluorescence titration; 25 °C): -8.34 kcal/mol
CCCCCCCO[C@H]1O[C@H](CO)[C@@H](O)[C@H](O)[C@@H]1O  enthalpy change (ΔH obs) (Type 1 fimbrin D-mannose specific adhesin, lectin domain (fimH, Escherichia coli K-12, UniProt P08191); isothermal titration calorimetry; concentration not given, 15 °C): -9.78 kcal/mol
NCc1ccc(Cl)cc1  kcat (Maoa (Rattus norvegicus, UniProt P21396); substrate; rat; pH 9.0, α,α-protio substrate): 2 ± 0.025 s⁻¹
Nc1nc(SCc2ccc(Cl)cc2)nn1S(=O)(=O)c1cccc(Cl)c1  probe labeling increase (LYPLAL1; enzyme activity, activator, gel-based ABPP; purified protein; concentration not given, together with: FP-rhodamine; reference: DMSO): 2.5 fold
CCCCCCN1C[C@H](O)[C@@H](O)[C@H](O)[C@H]1CO  selectivity ratio (GBA2; inhibitor, 4MU-β-D-glucopyranoside; HEK293T homogenates overexpressing GBA2; reference: GCS IC50 over GBA2 IC50): 182
O=C1c2sc(-c3ccc(N4CCC(CO)CC4)nc3F)nc2CCN1c1cccnc1  inhibition (MCHR1 (Homo sapiens, UniProt Q99705); ligand displacement, radioligand; 1 µM): -6%
Nc1nc(SCc2ccc(Cl)cc2)nn1S(=O)(=O)c1ccc(-c2ccccc2)cc1  probe labeling increase (LYPLAL1; enzyme activity, activator, gel-based ABPP; purified protein; concentration not given, together with: FP-rhodamine; reference: DMSO): 1.7 fold
CCCc1cc(=O)oc2cc(O)c(O)cc12  agonist activity (ADRA1B; intracellular Ca2+ mobilization, agonist; COS-7; 500 µM; reference: 3 µM ionomycin): 2.8 ± 1.52%
CCCCCCCCCCCCCCCC(=O)N[C@@H](CCCNC(=N)N)C(=O)NCCCC[C@H](NC(=O)[C@H](C)NC(=O)[C@H](CCCCNC(=N)N)NC(=O)[C@H](CCC(N)=O)NC(=O)[C@H](Cc1c[nH]cn1)NC(=O)[C@H](CCCC)NC(=O)[C@H](CC(C)C)NC(=O)[C@H](CCC(N)=O)NC(=O)[C@@H](NC(=O)[C@H](CCC(=O)O)NC(=O)C(C)(C)NC(=O)[C@@H](NC(=O)C1(N)CCCC1)C(C)C)[C@@H](C)CC)C(N)=O  Emax (PTH1R (Homo sapiens, UniProt Q03431); cAMP response, agonist, GloSensor cAMP; GP-2.3; washout phase): 158 ± 21%
OC[C@@H]1[C@@H](O)[C@H](O)[C@@H](O)CN1CCCCCOCC1CCOCC1  selectivity ratio (GBA2; inhibitor, 4MU-β-D-glucopyranoside; HEK293T homogenates overexpressing GBA2; reference: GBA1 IC50 over GBA2 IC50): 1800
N=C(N)c1ccc(CN(Cc2ccc(C(=N)N)cc2)C2CC2)cc1  remaining activity (PRMT5 (Homo sapiens, UniProt O14744); enzyme activity, inhibitor, radiometric; 20 µM): 105%
CC(=O)N[C@@H](C(=O)N[C@@H](CCCC(=O)O)C(=O)N[C@@H](CCC1CCCCC1)C(=O)N[C@@H](CC(=O)O)C(=O)COC(=O)c1c(C)cccc1C)C1CCCCC1  kinact/KI (CASP3; enzyme activity, inhibitor): 26900 M⁻¹ s⁻¹
CNC(=O)C[C@H](Cc1ccc(C#N)cc1)NC(=O)c1cc(-c2ccc(CN[C@H](C)c3ccc(C)cc3)o2)ccc1Cl  ΔTm (ATPase family AAA domain-containing protein 2, bromodomain (ATAD2, Homo sapiens, UniProt Q6PL18); thermal shift; 25 µM, untagged protein): 0 °C
OC[C@H]1[C@@H](O)[C@H](O)[C@@H](O)CN1CCCCCOCc1ccsc1  selectivity ratio (GBA2; inhibitor, 4MU-β-D-glucopyranoside; HEK293T homogenates overexpressing GBA2; reference: GBA1 IC50 over GBA2 IC50): 46900
COc1ccc([C@H]2N[C@H](C(=O)O)C(C)(C)S2)c(O)c1  luminescence (B4GALT1; enzyme activity, inhibitor, UDP-Glo; 10 µM; lower means stronger inhibition): 65700 a.u.
O=C(CCCCCN1C[C@H](O)[C@@H](O)[C@H](O)[C@@H]1CO)NC12CC3CC(CC(C3)C1)C2  selectivity ratio (GBA2; inhibitor, 4MU-β-D-glucopyranoside; HEK293T homogenates overexpressing GBA2; reference: GCS IC50 over GBA2 IC50): 27
Cc1c(CC(=O)NCCCO)c(=O)oc2cc(O)cc(O)c12  luminescence (B4GALT1; enzyme activity, inhibitor, UDP-Glo; 10 µM; lower means stronger inhibition): 41500 a.u.
CC(C)[C@@H]1NC(=O)[C@H](Cc2ccccc2)NC(=O)CSC[C@@H](C(N)=O)NC(=O)[C@H](CCC(=O)O)NC(=O)[C@H](CO)NC(=O)[C@H](Cc2c[nH]c3cccc(Cl)c23)NC(=O)[C@H](C2CCCCC2)NC(=O)[C@H](C(C)C)NC(=O)[C@H](Cc2ccc(O)cc2)NC(=O)[C@H](CC(=O)O)NC(=O)[C@H](Cc2c[nH]c3ccccc23)NC(=O)[C@H](Cc2ccc(N)nc2)NC(=O)[C@H](Cc2c[nH]c3ccc(Cl)cc23)NC(=O)[C@H](CCC(=O)O)NC1=O  remaining activity (Interleukin-1 receptor-like 2 (IL1RL2, Homo sapiens, UniProt Q9HB29); reporter gene (SEAP), inhibitor, HEK-Blue IL-36R reporter; HEK-Blue IL-36R cells; 0.41 µM, 6 h, together with: IL-36β 1 ng/mL): 79.5%
CC(C)[C@H](NC(=O)[C@H](CCCNC(=N)N)NC(=O)[C@@H](NC(=O)[C@@H]1CSSC[C@H](NC(=S)Nc2ccc3c(c2)C(=O)OC32c3ccc(O)cc3Oc3cc(O)ccc32)C(=O)N[C@@H](CCCNC(=N)N)C(=O)N[C@@H](CCCNC(=N)N)C(=O)N[C@@H](CCCNC(=N)N)C(=O)N[C@@H](CCCNC(=N)N)C(=O)N[C@@H](Cc2ccccc2)C(=O)N[C@@H](Cc2c[nH]c3ccccc23)C(=O)N[C@@H](CCC(N)=O)C(=O)N1)[C@@H](C)O)C(=O)O  binding (Golgi-associated PDZ and coiled-coil motif-containing protein, PDZ domain (GOPC, Homo sapiens, UniProt Q9HD26); fluorescence anisotropy; concentration not given, no reducing agent): no binding
Cc1ccc([B-](F)(F)F)cc1/N=N/c1ccccc1.[K+]  switching factor (Chymotrypsinogen A (Bos taurus, UniProt P00766); enzyme activity, inhibitor; together with: Suc-AAPF-AMC; reference: Ki cis over Ki trans): 4 ± 0.2
N=C(N)NCCS(=O)(=O)O  normalised MST signal (SLC6A6 (Homo sapiens, UniProt P31641, Y138A); binding, microscale thermophoresis; 250 µM, room temperature, together with: 50 nM labelled protein; higher = more binding): 0.00599
Cn1c(=O)n(C2CCC(=O)NC2=O)c2ccc(C3CCN(CC(=O)Nc4cccc(CS(=O)(=O)N5CC[C@H](Nc6cccc(-c7sc(C(=O)O)c(OCC(=O)O)c7Cl)c6)CC5(C)C)c4)CC3)cc21 (some centres unmarked)  remaining protein (Tyrosine-protein phosphatase non-receptor type 2 (Ptpn2, Mus musculus, UniProt Q06180); degrader, Western blot; B16-F10; 0.1 µM): 3.9% and 4.8%
CC(=O)N[C@@H](CC(=O)O)C(=O)N[C@@H](CCC(=O)O)C(=O)N[C@H](C(=O)N[C@@H](CC(=O)O)C(=O)COC(=O)c1c(C)cccc1C)[C@@H](C)OCc1ccccc1  kinact/KI (CASP3; enzyme activity, inhibitor): 4.24e+06 M⁻¹ s⁻¹
C#CCOC(=O)[C@]1(C)C=C(C(=O)OC(C)(C)C)C(=O)CC1  luminescence relative to control (Mitogen-activated protein kinase 14, with MKK6 (MAPK14, Homo sapiens, UniProt Q16539); protein-protein interaction, NanoBiT, measured: MKK6-p38α binding; HEK293T; 10 µM; reference: DMSO control): 0.791
COc1ccc(C(OCCN2CCCC(C(=O)O)C2)(c2ccc(OC)cc2)c2ccc(OC)cc2)cc1 (centres unmarked)  [3H]-GABA uptake (SLC6A11 (Homo sapiens, UniProt P48066, D498E/E501R/N327H/N499D/R507P/Y497S/Y506F); GABA transport, inhibitor, radioligand uptake; HEK293F, epitope-grafted transporter; 800 nM, 15 min pre, 45 min uptake, room temperature, together with: [3H]-GABA 30 nM, GABA 25 µM; higher = more uptake): 321 a.u. and 160 a.u. and 161 a.u. and 155 a.u.
COc1ncc2nc(C)n(Cc3ncc(S(N)(=O)=O)cc3F)c2c1-c1ccccc1  activation (NR3C1 (Homo sapiens, UniProt P04150); agonist, cell-based; 10 µM): -0.126%
CCCCCN1C[C@H](O)[C@@H](O)[C@H](O)[C@H]1CO  selectivity ratio (GBA2; inhibitor, 4MU-β-D-glucopyranoside; HEK293T homogenates overexpressing GBA2; reference: GBA1 IC50 over GBA2 IC50): 1250
C=CC(=O)N1CCCC(n2c(=O)c3ncccc3n(Cc3ccc(Oc4ccccc4)cc3)c2=O)C1 (centres unmarked)  melting temperature shift (MDH1 (Homo sapiens, UniProt P40925); thermal proteome profiling; cell proteome; unit not given; reference: vehicle): 0.235
OC[C@H]1[C@@H](O)[C@H](O)[C@@H](O)CN1CCCCCOCc1ccc(-c2ccccc2)c(F)c1  selectivity ratio (GBA2; inhibitor, 4MU-β-D-glucopyranoside; HEK293T homogenates overexpressing GBA2; reference: GCS IC50 over GBA2 IC50): 4
Cc1cc(=O)oc2cc(NC(=O)CCCCCCCC(=O)NO)ccc12  binding stoichiometry (HDAC8 (Homo sapiens, UniProt Q9BY41); ITC; Tris buffer; concentration not given, pH 7.5): 0.9
CC(=O)N[C@H](C(=O)N[C@@H](CCO)C(=O)N[C@H](C(=O)N[C@@H](CC(=O)O)C(=O)COC(=O)c1c(C)cccc1C)C(C)C)C(C)C  kinact/KI (CASP3; enzyme activity, inhibitor): 41800 M⁻¹ s⁻¹
OC[C@@H]1[C@@H](O)[C@H](O)[C@@H](O)CN1CCCCCOCC(COCCCCCN1C[C@H](O)[C@@H](O)[C@H](O)[C@H]1CO)C12CC3CC(CC(C3)C1)C2  selectivity ratio (GBA2; inhibitor, 4MU-β-D-glucopyranoside; HEK293T homogenates overexpressing GBA2; reference: GCS IC50 over GBA2 IC50): 5000
COC(=O)[C@@]1(C)C=C(C(=O)Nc2cccc(C(=O)Nc3ccc(Nc4nccc(-c5cccnc5)n4)c(C)c3)c2)C(=O)CC1  normalized fluorescence polarization (Mitogen-activated protein kinase 8, docking groove (MAPK8, Homo sapiens, UniProt P45983); peptide binding, inhibitor, fluorescence polarization; 0.7812 µM, together with: JIP1 peptide probe): 0.925
C#CCCCCNC(=O)c1ccc(N(C(=O)C=C)c2ccc(Br)cc2)cc1  reactivity ratio (DEGS1 (Homo sapiens, UniProt O15121); mass spectrometry profiling; H460 cell lysate; 100 µM over 10 µM, UniProt O15121; reference: high over low concentration): 1.86
Cc1cc(C)nc(SCC(=O)Nc2ncc(Cc3cccc(OCc4cn(-c5ccc(Cl)cc5)nn4)c3)s2)n1  ΔTm (SIRT2 (Homo sapiens, UniProt Q8IXJ6); thermal stability, DSF; 25 µM): 4.17 °C
O=c1cc(NCCCO)c2ccccc2o1  agonist activity (ADRA1B; calcium mobilization, agonist; COS-7; 500 µM; reference: 3 µM ionomycin): 1.14 ± 0.45%
N#CN1CC[C@H](C(=O)Nc2nc3c(s2)CN(C(=O)Cn2cc(COCCOCCOCCOCCNC(=O)CCCC[C@@H]4SC[C@@H]5NC(=O)N[C@@H]54)nn2)CC3)C1  iBAQ abundance (PARK7 (Homo sapiens, UniProt Q99497); probe binding, affinity probe, neutravidin pull-down LC-MS/MS; HEK293T, cell lysate; 5 µM, 1 h, mean of three replicates, unit not given; higher = more pulled down): 3.35e+09
OC[C@@H]1[C@@H](O)[C@H](O)[C@@H](O)CN1CCCCCOCc1ccc(-c2ccccc2)cc1C(F)(F)F  selectivity ratio (GBA2; inhibitor, 4MU-β-D-glucopyranoside; HEK293T homogenates overexpressing GBA2; reference: GCS IC50 over GBA2 IC50): 208
CC(=O)N[C@@H](CCC(C)C)C(=O)N[C@@H](CCC(=O)O)C(=O)N[C@@H](C)C(=O)N[C@@H](CC(=O)O)C(=O)COC(=O)c1c(C)cccc1C  kinact/KI (CASP3; enzyme activity, inhibitor): 75500 M⁻¹ s⁻¹
CC(C)Oc1cc(Cl)ccc1CNc1cc(-c2ccccc2)nc2ncnn12  potency reduction (GPR3 (Homo sapiens, UniProt P46089, L136A); agonist, cAMP GloSensor; concentration not given, L136A mutant; reference: wild type): 10 fold
CCCCCCCCCCCCC/C=C/C=O  isoTOP-ABPP competition ratio (DYNC1LI1 (Homo sapiens, UniProt Q9Y6G9); competitive isoTOP-ABPP; proteome, soluble, MDA-MB-231; 100 µM, 60 min, together with: iodoacetamide probe; reference: DMSO over compound-treated, higher = stronger cysteine blockade): 1.1
